Results collected from several papers.
Every numbered part comes from another study and shows a few of its results, in no order. Positions count from the first letter of the parent shown.

Series 1
Target: Prothrombin, mature alpha-thrombin (F2, Homo sapiens, UniProt P00734)
Technique: aptamer microarray, sandwich
Form: DNA with 2'F-ANA
Sample: in vitro
Concentration: 200 nM
Notes: whole 15-mer aptamer, many near background
Together with: Cy3 exosite-II aptamer, 400 nM
Direction: higher = stronger binding
Endpoint: mean fluorescence intensity
Sequence: GGTTGGTGTGGTTGG
2'F-ANA at 2 7 10 12 13: 168 a.u.
2'F-ANA at 2 5 7 8 9 10 11 13 15: 54.8 a.u.
2'F-ANA at 1 2 3 4 7 8 9 10 12 13 14: 53.3 a.u.
2'F-ANA at 2 7: 498 a.u.
2'F-ANA at 1 3 4 7 9 10 11 13: 58 a.u.
2'F-ANA at 5 6 7 9 10 13 14 15: 49.9 a.u.
2'F-ANA at 1 3 8 10 12 14 15: 57.9 a.u.
2'F-ANA at 3 5 6 7 9 11 13 14: 71.6 a.u.

Series 2
Target: FOSB, bZIP domain (human)
Technique: DHFR protein complementation
Sample: yeast
Notes: single substitutions, most at no-binding floor
Reference: wild-type JUN-FOS pair
Direction: higher = stronger binding
Endpoint: binding fitness
Starting sequence: JUN, bZIP domain (human); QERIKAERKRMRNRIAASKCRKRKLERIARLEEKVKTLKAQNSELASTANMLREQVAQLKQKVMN; partner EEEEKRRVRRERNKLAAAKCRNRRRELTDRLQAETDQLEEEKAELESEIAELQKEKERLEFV
T37G: -0.172 natural log
N42S: -0.767 natural log
M51K: -0.0687 natural log
T37K: -0.011 natural log
V56E: -1.19 natural log
A40E: -0.0126 natural log
R53T: -0.889 natural log
A46F: -0.336 natural log

Series 3
Target: FOXO3, forkhead domain (mouse, UniProt Q9WVH4, residues 31-263)
Sequence of UniProt Q9WVH4 (31-263, looked up): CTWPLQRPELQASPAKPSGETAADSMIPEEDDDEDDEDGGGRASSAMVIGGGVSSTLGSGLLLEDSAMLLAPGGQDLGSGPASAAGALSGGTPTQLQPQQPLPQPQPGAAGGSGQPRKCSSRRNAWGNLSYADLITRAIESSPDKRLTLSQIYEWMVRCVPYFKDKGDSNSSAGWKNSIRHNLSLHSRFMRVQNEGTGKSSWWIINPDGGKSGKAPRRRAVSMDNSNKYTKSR
Technique: protein-binding microarray
Form: hairpin DNA
Sample: in vitro
Concentration: not given
Notes: whole hairpin DNA, median over replicate spots
Reference: not given
Direction: higher = stronger binding
Endpoint: median fluorescence
All sequences stand within: GAGGCCAT … ATGGCCTCACACTC
GCACGCAACGCCTCCTGGCGTTGCGTGC (5mC at 12 32): 4850 a.u.
GCAAACAGCGCCTCCTGGCGCTGTTTGC (5mC at 29): 5110 a.u.
TTAAACAACGCCTCCTGGCGTTGTTTAA: 3420 a.u.
CTAACCAACGCCTCCTGGCGTTGGTTAG (5mC at 9): 3930 a.u.
GCGAACAACGCCTCCTGGCGTTGTTCGC (5mC at 34): 4470 a.u.
GCAAACAAAGCCTCCTGGCTTTGTTTGC: 4420 a.u.
GCGACCAACGCCTCCTGGCGTTGGTCGC (5mC at 34): 4590 a.u.
GTAAACGACGCCTCCTGGCGTCGTTTAC (5mC at 14 30): 4610 a.u.

Further values, each from its own experiment
Starting sequence: viral docking peptide; KGVKRKLFAEDSS
KGVDRKLFAEDSS [K4D] — normalised enrichment score (CCNA1, cyclin fold, Cln2 fusion (human); yeast growth competition, sequencing; yeast; weak parent motif; reference: not given, higher = stronger binding): -0.139
